# Measurements of several laboratories.
# Each numbered part is a random draw from the data of one study; scales do not carry over between parts. Positions count from the first letter of the parent shown.

# Set 1 — technique: protein binding microarray; molecule type: double-stranded DNA, one strand shown; matrix: in vitro; concentration: not given; reference: not given; reading: higher = stronger binding
# Target: Histone acetyltransferase KAT6A, winged helix 2, GST fusion (KAT6A, Homo sapiens, UniProt Q92794, residues 85-181)
# Setting: 8-mer, flanks averaged, mean of 2 arrays, mostly near background
# Construct (chain): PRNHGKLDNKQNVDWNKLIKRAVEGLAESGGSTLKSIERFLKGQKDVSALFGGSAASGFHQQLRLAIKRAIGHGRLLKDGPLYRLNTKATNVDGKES
Sequence,E-score
TAGTTGAA,0.0885
AAACATGT,-0.155
AACGGGTC,-0.0246
ATTGGTTG,0.0019
AGCTCACT,-0.191
CAGCAGAA,0.0091
CGGCTGGC,0.05
ACTATAGA,-0.0501
ATGGGGTC,-0.00475
AGCAGGCG,0.203
CCGCTCCC,0.0381
TGACTCCA,-0.119
CGCATATC,0.0947
ACACCTGC,0.125
ATAGCACG,-0.214
ACGTATGG,-0.198
ACCTATTA,-0.166
CGAAGACC,0.173
ACCGTGTG,0.0118
GATCGTTA,-0.223
GTAGTGCA,-0.104
CAACGCGA,-0.0554
CGCGCTTC,-0.0203
CTCACAGC,0.077

# Set 2 — technique: DHFR PCA, deep sequencing; matrix: yeast; together with: (+)-ABA 1.4 µM; reference: wild-type fitted maximum; reading: higher = stronger binding
# Target: ABI1, truncated, D143A, DHFR fusion (Arabidopsis thaliana)
# Setting: methotrexate growth selection, single substitutions
# Starting sequence: PYL1, truncated, DHFR fusion (Arabidopsis thaliana); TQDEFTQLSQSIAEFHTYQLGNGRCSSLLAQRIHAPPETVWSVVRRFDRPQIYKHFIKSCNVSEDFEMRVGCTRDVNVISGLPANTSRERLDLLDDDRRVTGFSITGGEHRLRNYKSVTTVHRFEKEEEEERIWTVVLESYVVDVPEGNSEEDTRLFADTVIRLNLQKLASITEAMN; partner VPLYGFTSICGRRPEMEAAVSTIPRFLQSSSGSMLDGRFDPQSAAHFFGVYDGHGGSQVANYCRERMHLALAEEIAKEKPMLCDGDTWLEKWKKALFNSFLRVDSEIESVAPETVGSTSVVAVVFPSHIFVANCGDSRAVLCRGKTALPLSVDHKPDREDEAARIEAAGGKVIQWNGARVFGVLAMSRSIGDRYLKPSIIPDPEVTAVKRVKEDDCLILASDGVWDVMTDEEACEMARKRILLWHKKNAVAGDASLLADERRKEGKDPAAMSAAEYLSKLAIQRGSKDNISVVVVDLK
Variant,relative binding score [%]
E152K,25.8
D159M,-18.2
H122Y,5.62
A30M,74.2
R113G,15.7
T17W,-23
R155D,-41.6
E152V,23.7
S11M,49.5
F103M,8.65
E152P,-14.6
V142I,49.3
Q31P,-9.13
L138C,19.2
V137F,1.16
I172G,-19.5
Y115I,-2.38
I172K,-6.22
G148K,-23.5
S59D,54
R113V,48.1
T86G,31
S171A,64

# Set 3 — technique: universal PBM; molecule type: double-stranded DNA, one strand shown; matrix: in vitro; concentration: not given; reading: higher = stronger binding
# Target: Sal-like protein 4, full length isoform B (SALL4, Homo sapiens, UniProt Q9UJQ4-2, residues 1-616)
# Setting: 8-mer, flanks averaged, mean of replicates
# Construct (chain): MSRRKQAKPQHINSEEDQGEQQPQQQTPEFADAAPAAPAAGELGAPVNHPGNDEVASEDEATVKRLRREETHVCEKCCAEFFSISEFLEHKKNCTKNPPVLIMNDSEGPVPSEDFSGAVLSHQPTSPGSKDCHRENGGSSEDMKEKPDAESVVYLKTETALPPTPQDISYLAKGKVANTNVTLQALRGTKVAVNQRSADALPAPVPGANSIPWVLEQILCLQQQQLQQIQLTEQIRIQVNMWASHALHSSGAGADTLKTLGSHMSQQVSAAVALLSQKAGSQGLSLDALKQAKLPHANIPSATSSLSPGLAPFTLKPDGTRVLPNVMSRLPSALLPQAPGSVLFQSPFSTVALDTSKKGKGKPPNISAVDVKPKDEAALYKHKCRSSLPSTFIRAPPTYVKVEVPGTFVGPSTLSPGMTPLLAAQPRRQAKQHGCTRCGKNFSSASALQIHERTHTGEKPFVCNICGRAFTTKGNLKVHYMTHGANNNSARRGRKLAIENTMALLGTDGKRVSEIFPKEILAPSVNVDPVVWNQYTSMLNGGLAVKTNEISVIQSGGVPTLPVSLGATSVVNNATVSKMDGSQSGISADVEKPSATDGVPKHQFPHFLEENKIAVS
Sequence,E-score
GTAGACGA,0.0382
CCTGCAAC,-0.0477
ACGACTCC,-0.136
ATATTCTG,0.283
ACATTGCT,0.178
ACGGCAGA,-0.159
CCATAAAG,0.11
CGAGTCTA,-0.0828
TATCGGAA,0.191
ACGTAGGC,-0.115
AGATAAAG,0.2
AGCCTAAT,0.0691
GCGACGTA,-0.0762
AACGCTTA,0.0197
CTGCAAAA,0.158
AGAGGACA,-0.00339
AAGCGCCG,-0.219
CCAGAAAA,0.0422
CTCTACGC,-0.241
AAGAGATT,0.0897
TCTATCAA,0.194

# Set 4 — target: CCNA1, cyclin fold, Cln2 fusion (human); technique: yeast growth competition, sequencing; matrix: yeast; setting: weak parent motif; reference: not given; reading: higher = stronger binding
# Starting sequence: PPP1R3F docking peptide (human); VAPRRVLFADEAL; partner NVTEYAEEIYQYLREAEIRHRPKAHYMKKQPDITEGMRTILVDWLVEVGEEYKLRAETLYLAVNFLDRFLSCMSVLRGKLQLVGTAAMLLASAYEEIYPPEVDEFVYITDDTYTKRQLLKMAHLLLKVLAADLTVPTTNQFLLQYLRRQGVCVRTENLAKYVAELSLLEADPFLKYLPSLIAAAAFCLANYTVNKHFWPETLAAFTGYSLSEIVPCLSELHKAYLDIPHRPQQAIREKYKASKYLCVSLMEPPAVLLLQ
Variant,normalised enrichment score
VAPRKVLLADEAL [R5K F8L],0.251
VAPRRVLLADEAL [F8L],0.353
VAPRAVLFADEAL [R5A],0.506
VAARRVLFADEAL [P3A],0.649
AAPRRVLFADEAL [V1A],0.293
VAPRAVAFADEAL [R5A L7A],0.131
VAPRRALFADEAL [V6A],0.187
VAPRRVLFADEAA [L13A],0.115

# For quick reference, copied from above (set 3):
Sequence,E-score
AAGAGATT,0.0897
ATATTCTG,0.283
CCATAAAG,0.11
AGATAAAG,0.2
TCTATCAA,0.194
